Results of several laboratories.
Each line is one published result; not all experiments were run side by side. “And” joins repeats or separate records; there may be more than shown.
CDK2: Cyclin-dependent kinase 2 (CDK2, Homo sapiens, UniProt P24941)
CDK2 with cyclin A: Cyclin-dependent kinase 2, with cyclin A (CDK2, Homo sapiens, UniProt P24941)
CDK2 with cyclin E: Cyclin-dependent kinase 2, with cyclin E (CDK2, Homo sapiens, UniProt P24941)

CNC(=O)C1CCCN(C(=O)C2CC3CCC2N3C(=O)[C@@H]2C[C@@H](O)CN2C(=O)NCc2cccc(Cl)c2F)C1 (mixture of isomers)  protein reduction (CDK2; degrader, Western blot; A549; concentration not given, 48 h; reference: DMSO): > 50%
Cc1ccc(C)c(-c2ccc3nc(NC(=O)C4CCCCC4)nn3c2)c1  remaining activity (CDK2 with cyclin A; enzyme activity, Dundee kinase panel; 10 µM): 90%
COc1c(OCCCN2CCOCC2)ccc2c1N=C(NC(=O)c1cnc(N)nc1)N1CCN=C21  remaining activity (CDK2 with cyclin E; kinase activity, inhibitor; 1 µM; reference: untreated control): 102%
CN1CCN(Cc2ccc(-c3ccc(CO[C@H]4CCC[C@@H]4NC(=O)c4cc(-c5cnn(C)c5)cnc4N)cc3)cc2)CC1  inhibition (Cyclin-dependent kinase 2, with cyclin A1 (CDK2, Homo sapiens, UniProt P24941); enzyme activity, inhibitor; 0.1 µM): -4%
O=C(Cc1ccc(OCc2ccccc2)cc1)NC1(C(=O)O)CCN(C(=O)c2ccc(-c3cccc(Cl)c3)cc2)CC1  activity vs control (CDK2 with cyclin E; enzyme activity, inhibitor; 10 µM): 130%
O=c1c(-c2ccc(Cl)c(CN3CCOCC3)c2)coc2cc(O)ccc12  remaining activity (CDK2 with cyclin E; enzyme activity, inhibitor; 1 µM): 90%
NC(=O)[C@@H](O)C[C@H]1CCc2sc3ncnc(O[C@H]4CC[C@H](N5CCOCC5)CC4)c3c21  inhibition (CDK2 with cyclin E; enzyme activity, inhibitor; 10 µM): 32%
Cc1cc(C)nc(Nc2ccc([C@@H]3CCCN(C(=O)/C=C/c4c(C)nn(C)c4C)C3)nc2)n1  activity vs control (CDK2; enzyme activity, inhibitor, ADP detection; 1 µM): 104%
C=CC(=O)Nc1cccc(-c2cnc3[nH]cc(C(=O)NC(C)(C)C)c3n2)c1  inhibition (CDK2; enzyme activity, inhibitor; 0.1 µM): 19%
CN1C[C@@H](c2c[nH]c3cc(Br)ccc23)NC[C@@H]1c1c[nH]c2cc(Br)ccc12  remaining activity (Cyclin-dependent kinase 2, with cyclin D1 (CDK2, Homo sapiens, UniProt P24941); enzyme activity, inhibitor; 10 µM): 100%
Cc1cccc(-c2ccc3nc(NC(=O)C4CCOCC4)nn3c2)c1  remaining activity (CDK2 with cyclin A; enzyme activity, Dundee kinase panel; 10 µM): 98%
Cc1cccc(O[C@H]2CCC[C@@H](C(C)CNCc3ccncc3)C2)c1 (relative stereo)  inhibition (CDK2; kinase activity, kinome panel screening; 1 µM): -3%
CNC1C[S+]2CC[S+]3CC[S+](C1)[Ru-4]321([N]=C=S)[n]2c3ccc(OC)cc3c3c4c(c5cc(F)c[n+]1c5c32)C(=O)NC4=O (stereo not shown)  remaining binding (CDK2; KinomeScan; 0.1 µM; reference: untreated): 97%
CN1CCN(Cc2ccc(NC(=O)c3cccc(C#Cc4cnc(N)c5ncccc45)c3)cc2C(F)(F)F)CC1  remaining binding (CDK2; cell-free assay, competition with immobilised ligand; 0.5 µM): 94%
Nc1ncc2c(n1)-c1c([nH]c3ccc(C4=CCOCC4)cc13)CCC2  remaining binding (CDK2; binding, competition with immobilised ligand; 1 µM): 100%
CCN1CCN(Cc2ccc(C(=O)Nc3ccc(C)c(NCc4cnc5[nH]ccc5c4OC)c3)cc2C(F)(F)F)CC1  remaining binding (CDK2; binding, competition with immobilised ligand; 1 µM): 100%
CC(=O)N1c2ccc(-c3ccc(CNC(=O)c4cn5cc(-c6cnc(N)nc6)nc(N6CCOCC6)c5n4)cc3)cc2CC[C@@H]1C  remaining binding (CDK2; KINOMEscan; 10 µM): 90%
O=C=[N][Ru-4]123([n]4c5ccc(O)cc5c5c6c(c7cc(F)c[n+]1c7c54)C(=O)NC6=O)[S+]1CC[S+]2CC[S+]3CC1 (stereo not shown)  remaining activity (CDK2 with cyclin E; enzyme activity; 100 nM, human enzyme, with: 10 µM ATP; reference: untreated): 103%
COCC12C(=O)NC3C4(C(OC)CC1O)C1CC5(O)C(OC)C(O)C(OC(C)=O)(C1C5OC(=O)c1ccccc1)C3(O)C(OC)C24 (stereo not shown)  remaining activity (CDK2 with cyclin E; kinase activity, inhibitor, ProQinase kinase profiling; 25 µM; reference: control): 98% and 105%
O=C(O)CCC(=O)c1cccc(NS(=O)(=O)c2c[nH]c3ncccc23)c1  remaining activity (CDK2 with cyclin A; kinase activity, radiometric; 10 µM): 106%
Cc1nn(C)c(C)c1/C=C/C(=O)N1CCC[C@H](Cc2ccc(Nc3ccccn3)nn2)C1  activity vs control (CDK2; enzyme activity, inhibitor, ADP detection; 1 µM): 91%
C=C1CCCCCCCCCC(CO)C1=O (stereo not shown)  remaining binding (CDK2; cell-free assay, competition with immobilised ligand; 10 µM): 98%
CNC(=O)C[C@H](Cc1ccc(C#N)cc1)NC(=O)c1cc(-c2ccc(CN[C@H](C)c3ccc(C)cc3)o2)ccc1Cl  activity vs control (CDK2 with cyclin A; enzyme activity, inhibitor; 1 µM): 105%
C=CC(=O)N1Cc2nc(-c3cc(-c4cc(Cl)cnc4Cl)c(F)cc3F)n(-c3ccncn3)c2C1  inhibition (Cyclin-dependent kinase 2, with cyclin E1 (CDK2, Homo sapiens, UniProt P24941); cell-free assay, inhibitor; 1 µM): -1.3%
CCn1cc(C(=O)O)c(=O)c2c(N)c(F)c(NC3CCCCC3)cc21  inhibition (Cyclin-dependent kinase 2, with cyclin A2 (CDK2, Homo sapiens, UniProt P24941); kinase activity; 0.1 µM, with: ATP at Km): 41%
COc1ccc(NC(=O)Nc2ccc3c(c2)C(=O)N(C(C)CO)CC(C)C(CN(C)Cc2ccc4c(c2)OCO4)O3)cc1 (stereo not shown)  remaining binding (CDK2; binding, competition with immobilised ligand; 10 µM): 100%
Cc1cnc2nc1Nc1cccc(c1)COC/C=C/COCc1cc(ccc1OCCN1CCOCC1)N2  percent of control (CDK2; concentration not given): 97%
Nc1nc(Nc2ccccc2)sc1C(=O)c1ccccc1  remaining activity (CDK2 with cyclin A; enzyme activity, inhibitor; 10 µM): 2%
